Assay results of several laboratories.
Numbered parts are unrelated; each lists some results of a single study. Values joined by “and” are separate records of one study, mostly repeats; a detail may differ.

Study 1 — cell line: A-375; concentration: 100 µM; time: 36 h
| SMILES | viability [%] |
| --- | --- |
| OCc1ccccc1O[C@@H]1O[C@H](CO)[C@@H](O)[C@H](O)[C@H]1O | 123 |
| CC(C)Cc1ccc([C@H](C)C(=O)O)cc1 | 104 |
| Cc1c(NC(=O)c2cccnc2)c(=O)n(-c2ccccc2)n1C | 107 |
| C[C@H](CS)C(=O)N1CCC[C@H]1C(=O)O | 92.6 |
| CC1(C)[C@@H]2CC[C@@]1(C)C(=O)C2 | 108 |
| Oc1ccc(O)cc1 | 107 |
| COc1c2occc2cc2ccc(=O)oc12 | 106 |

Study 2 — effect on: ligand displacement; technique: radioligand; concentration: 10 µM
Target: 5-hydroxytryptamine receptor 1B (HTR1B, Homo sapiens, UniProt P28222)
Chain of UniProt P28222 (whole entry, looked up): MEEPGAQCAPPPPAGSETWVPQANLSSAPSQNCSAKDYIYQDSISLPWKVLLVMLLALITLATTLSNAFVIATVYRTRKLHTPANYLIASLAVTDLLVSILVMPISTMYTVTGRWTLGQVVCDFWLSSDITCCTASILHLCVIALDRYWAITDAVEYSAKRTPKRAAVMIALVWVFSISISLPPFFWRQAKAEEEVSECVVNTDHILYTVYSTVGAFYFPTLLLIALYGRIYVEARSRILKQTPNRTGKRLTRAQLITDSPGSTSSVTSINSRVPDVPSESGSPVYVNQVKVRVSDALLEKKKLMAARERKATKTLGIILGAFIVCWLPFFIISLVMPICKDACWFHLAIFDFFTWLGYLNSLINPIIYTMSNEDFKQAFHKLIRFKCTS
| Compound | inhibition [%] |
| --- | --- |
| Cn1cncc1[C@](O)(COc1ccc(C#N)cc1-c1ccc(OC(F)(F)F)cc1)c1ccc(C#N)cc1 | -4.28 |
| CO[C@H]1CC[C@H](CNc2ccc(S(=O)(=O)NC(=O)c3ccc(N4CCN(CC5=C(c6ccc(Cl)cc6)CC(C)(C)CC5)CC4)cc3Oc3cnc4[nH]ccc4c3)cc2[N+](=O)[O-])CC1 | 6.23 |
| CCC(=O)N[C@@H]1CC[C@H](C(=O)N(C)c2ccc(-c3nc4ccccc4o3)cc2)C1 | -14.1 |
| Cc1c(NC(=O)c2cc(C(N)=O)nc3cc(F)ccc23)c(C(F)(F)F)nn1Cc1ccc(C#N)cc1 | 2.6 |
| COc1cc(-c2cn(C3CCc4ccccc4N(CC(F)(F)F)C3=O)nn2)ccc1-n1ccc(C)n1 (stereo not shown) | 30.8 |
| C[C@@]1(Cc2ccc(C#N)cc2)C(=O)N(c2cc(Cl)cc(Cl)c2)c2ncc(C(=O)NC3(c4nc(C5CCC5)no4)CC3)n21 | 17.5 |
| COc1cc(-c2cn(C3CCc4c(F)cccc4N(CC(F)(F)F)C3=O)nn2)ccc1-n1cnc(C)c1 (stereo not shown) | 35 |

Study 3
Structure (SMILES): c1ccc(Oc2ccc(Nc3c4c(nc5ccccc35)CCC4)cc2)cc1
| cell line | test | setting | cytotoxicity |
| --- | --- | --- | --- |
| HEK293 | resazurin | 0.32 µM, 10% serum | 11% and 10% |
| J774.1 | resazurin | 0.166 µM | -3% and -5% |
| RAW264.7 | resazurin | 16.66 µM, 64 h | 15% and 16% |
| PMA-differentiated THP-1 macrophages |  | 0.2 µM, 64 h | 0% and 15% |
| J774.1 | resazurin | 0.66 µM | 4% and 12% |
| RAW264.7 | resazurin | 6.66 µM, 64 h | -6% |

Study 4 — effect on: enzyme activity; mode: inhibitor; concentration: 0.5 µM; baseline: control
Target: Serine/threonine-protein kinase D1 (PRKD1, Homo sapiens, UniProt Q15139)
Chain of UniProt Q15139 (whole entry, looked up): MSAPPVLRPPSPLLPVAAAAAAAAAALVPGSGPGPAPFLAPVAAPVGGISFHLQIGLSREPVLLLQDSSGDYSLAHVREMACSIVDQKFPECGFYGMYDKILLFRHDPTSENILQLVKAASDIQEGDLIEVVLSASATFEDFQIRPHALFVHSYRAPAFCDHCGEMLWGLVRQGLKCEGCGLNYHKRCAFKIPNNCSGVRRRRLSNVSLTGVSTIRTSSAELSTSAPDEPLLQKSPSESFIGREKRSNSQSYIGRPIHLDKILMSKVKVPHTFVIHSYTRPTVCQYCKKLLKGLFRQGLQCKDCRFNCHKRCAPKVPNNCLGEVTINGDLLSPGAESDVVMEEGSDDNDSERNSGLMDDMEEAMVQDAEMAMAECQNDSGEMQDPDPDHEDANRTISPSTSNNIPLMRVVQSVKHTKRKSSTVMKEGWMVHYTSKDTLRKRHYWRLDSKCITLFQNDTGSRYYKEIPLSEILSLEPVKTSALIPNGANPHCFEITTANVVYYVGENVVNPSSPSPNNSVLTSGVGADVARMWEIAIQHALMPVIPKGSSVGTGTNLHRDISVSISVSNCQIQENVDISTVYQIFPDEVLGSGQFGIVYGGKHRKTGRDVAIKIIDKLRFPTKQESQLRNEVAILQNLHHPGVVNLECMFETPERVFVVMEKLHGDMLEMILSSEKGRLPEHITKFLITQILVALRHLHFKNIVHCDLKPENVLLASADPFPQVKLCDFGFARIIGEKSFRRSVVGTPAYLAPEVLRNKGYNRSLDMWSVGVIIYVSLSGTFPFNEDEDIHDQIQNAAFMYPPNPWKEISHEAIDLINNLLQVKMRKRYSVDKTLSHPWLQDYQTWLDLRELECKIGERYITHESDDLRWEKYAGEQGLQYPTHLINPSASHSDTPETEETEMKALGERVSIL
| SMILES | remaining activity [%] |
| --- | --- |
| COc1ccc(OC)c2c(=S)c3ccccc3[nH]c12 | 99.8 |
| COc1cc2nccc(Oc3ccc(NC(=S)NC(=O)c4ccccc4C)cc3)c2cc1OC | 137 |
| Nc1ncnc2n[nH]c(Nc3ccc(F)cc3)c12 | 98.9 |
| COc1ccc(C(=O)Nc2sc3c(c2C(N)=O)CCCC3)cc1OC | 99.6 |
| N#CC(C#N)=C(N)/C(C#N)=C/c1ccc(O)cc1 | 101 |
| Cc1ccc(Nc2nccc(N(C)c3ccc4c(C)n(C)nc4c3)n2)cc1S(N)(=O)=O | 96.9 |
| CO[C@H]1C[C@@H]2CC[C@@H](C)[C@@](O)(O2)C(=O)C(=O)N2CCCC[C@H]2C(=O)O[C@H]([C@H](C)C[C@@H]2CC[C@@H](O)[C@H](OC)C2)CC(=O)[C@H](C)/C=C(\C)[C@@H](O)[C@@H](OC)C(=O)[C@H](C)C[C@H](C)/C=C/C=C/C=C/1C | 98.2 |
| CN(C)c1ccc(C=C2C(=O)Nc3ccccc32)cc1 | 100 |
| O=C(O)c1ccc2c3c1cccc3c(=O)n1c3ccccc3nc21 | 86.2 |
| Nc1[nH]nc2nc3ccccc3nc12 | 94.9 |
| COc1cc2ncnc(Nc3ccc(Oc4ccccc4)cc3)c2cc1OC | 95.6 |
| Oc1ccc(-c2nc(-c3ccncc3)c(-c3ccc(F)cc3)[nH]2)cc1 | 90.7 |
| O=C(Nc1cccc(Nc2cc(Nc3cccc(C(F)(F)F)c3)ncn2)c1)C1CC1 | 100 |
| C#Cc1cccc(Nc2ncnc3cc(OCCOC)c(OCCOC)cc23)c1 | 94.8 |

For quick reference, copied from above (study 3):
| cell line | test | setting | cytotoxicity |
| --- | --- | --- | --- |
| J774.1 | resazurin | 0.166 µM | -3% and -5% |
| RAW264.7 | resazurin | 16.66 µM, 64 h | 15% and 16% |
| PMA-differentiated THP-1 macrophages |  | 0.2 µM, 64 h | 0% and 15% |
| J774.1 | resazurin | 0.66 µM | 4% and 12% |
